{"data": "Measurements gathered from unrelated publications", "note": "Numbered parts are unrelated; each lists some results of a single study.", "UniProt O43293, sequence (whole entry, looked up)": "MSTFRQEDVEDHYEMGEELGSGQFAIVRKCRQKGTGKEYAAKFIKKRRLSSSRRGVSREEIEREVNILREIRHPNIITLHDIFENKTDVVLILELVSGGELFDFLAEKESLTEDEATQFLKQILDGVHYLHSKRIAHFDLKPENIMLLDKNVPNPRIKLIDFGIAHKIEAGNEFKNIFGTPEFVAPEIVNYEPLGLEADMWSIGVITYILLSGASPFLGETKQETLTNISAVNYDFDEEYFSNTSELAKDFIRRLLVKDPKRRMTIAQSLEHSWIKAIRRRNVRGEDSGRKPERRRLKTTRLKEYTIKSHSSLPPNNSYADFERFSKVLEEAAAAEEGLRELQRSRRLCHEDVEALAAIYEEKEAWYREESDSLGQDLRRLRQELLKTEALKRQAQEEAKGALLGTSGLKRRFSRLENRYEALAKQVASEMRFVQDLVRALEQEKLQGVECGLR", "UniProt P37173, sequence (whole entry, looked up)": "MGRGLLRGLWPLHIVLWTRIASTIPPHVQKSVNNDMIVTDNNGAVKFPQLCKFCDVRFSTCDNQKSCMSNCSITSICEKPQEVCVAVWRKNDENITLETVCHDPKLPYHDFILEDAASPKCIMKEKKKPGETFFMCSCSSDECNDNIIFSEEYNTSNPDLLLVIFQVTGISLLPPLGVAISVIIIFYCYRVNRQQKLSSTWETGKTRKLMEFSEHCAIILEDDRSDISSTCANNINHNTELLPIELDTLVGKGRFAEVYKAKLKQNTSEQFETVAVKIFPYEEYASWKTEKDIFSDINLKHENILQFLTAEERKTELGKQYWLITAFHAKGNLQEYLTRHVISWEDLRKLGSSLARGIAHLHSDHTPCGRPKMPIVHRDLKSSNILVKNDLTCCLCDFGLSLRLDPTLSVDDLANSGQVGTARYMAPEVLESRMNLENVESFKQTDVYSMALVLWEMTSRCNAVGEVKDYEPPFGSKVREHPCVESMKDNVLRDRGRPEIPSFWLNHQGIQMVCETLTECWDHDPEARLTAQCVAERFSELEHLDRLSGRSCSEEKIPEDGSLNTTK", "UniProt Q9UM73, sequence (whole entry, looked up)": "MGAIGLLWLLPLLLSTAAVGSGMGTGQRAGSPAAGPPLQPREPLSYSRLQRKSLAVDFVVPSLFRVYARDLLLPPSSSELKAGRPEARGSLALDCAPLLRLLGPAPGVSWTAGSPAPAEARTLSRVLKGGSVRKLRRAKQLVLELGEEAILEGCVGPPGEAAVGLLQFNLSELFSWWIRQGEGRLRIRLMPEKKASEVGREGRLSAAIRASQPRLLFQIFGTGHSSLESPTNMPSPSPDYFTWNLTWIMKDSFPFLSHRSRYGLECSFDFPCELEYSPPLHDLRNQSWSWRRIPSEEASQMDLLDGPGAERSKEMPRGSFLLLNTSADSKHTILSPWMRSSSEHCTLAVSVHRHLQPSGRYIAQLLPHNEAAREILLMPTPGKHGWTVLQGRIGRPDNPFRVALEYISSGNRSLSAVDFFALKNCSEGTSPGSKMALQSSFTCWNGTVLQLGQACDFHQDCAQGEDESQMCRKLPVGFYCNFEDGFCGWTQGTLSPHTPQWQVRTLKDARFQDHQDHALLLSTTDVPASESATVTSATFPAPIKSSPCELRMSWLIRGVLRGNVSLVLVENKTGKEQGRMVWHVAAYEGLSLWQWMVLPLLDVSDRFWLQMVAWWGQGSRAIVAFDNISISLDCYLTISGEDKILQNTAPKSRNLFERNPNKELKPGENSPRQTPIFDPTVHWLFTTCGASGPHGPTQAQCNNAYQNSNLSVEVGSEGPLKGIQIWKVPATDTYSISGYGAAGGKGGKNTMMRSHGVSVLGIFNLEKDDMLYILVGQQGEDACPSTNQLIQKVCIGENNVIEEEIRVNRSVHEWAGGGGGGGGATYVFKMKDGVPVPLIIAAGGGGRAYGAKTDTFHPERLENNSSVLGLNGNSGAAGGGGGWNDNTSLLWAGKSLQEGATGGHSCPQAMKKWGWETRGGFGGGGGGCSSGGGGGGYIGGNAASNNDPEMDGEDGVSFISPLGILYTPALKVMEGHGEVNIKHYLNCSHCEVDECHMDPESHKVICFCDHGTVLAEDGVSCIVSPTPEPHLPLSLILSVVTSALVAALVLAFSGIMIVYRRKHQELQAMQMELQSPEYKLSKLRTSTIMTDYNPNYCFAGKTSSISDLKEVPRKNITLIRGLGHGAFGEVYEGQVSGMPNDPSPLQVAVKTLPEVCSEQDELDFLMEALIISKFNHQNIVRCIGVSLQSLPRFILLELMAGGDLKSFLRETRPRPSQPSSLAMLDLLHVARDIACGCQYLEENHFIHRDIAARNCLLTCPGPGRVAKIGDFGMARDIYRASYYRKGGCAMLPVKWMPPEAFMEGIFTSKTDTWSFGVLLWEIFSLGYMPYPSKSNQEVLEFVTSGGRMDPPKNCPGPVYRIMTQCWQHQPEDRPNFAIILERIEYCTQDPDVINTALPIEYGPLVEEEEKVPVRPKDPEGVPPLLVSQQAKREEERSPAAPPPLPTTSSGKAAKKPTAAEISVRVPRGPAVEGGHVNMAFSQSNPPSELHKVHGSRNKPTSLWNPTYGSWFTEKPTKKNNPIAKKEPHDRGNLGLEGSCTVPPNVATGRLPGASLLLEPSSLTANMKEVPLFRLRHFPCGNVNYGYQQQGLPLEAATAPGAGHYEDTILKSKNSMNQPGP", "UniProt Q9H093, sequence (whole entry, looked up)": "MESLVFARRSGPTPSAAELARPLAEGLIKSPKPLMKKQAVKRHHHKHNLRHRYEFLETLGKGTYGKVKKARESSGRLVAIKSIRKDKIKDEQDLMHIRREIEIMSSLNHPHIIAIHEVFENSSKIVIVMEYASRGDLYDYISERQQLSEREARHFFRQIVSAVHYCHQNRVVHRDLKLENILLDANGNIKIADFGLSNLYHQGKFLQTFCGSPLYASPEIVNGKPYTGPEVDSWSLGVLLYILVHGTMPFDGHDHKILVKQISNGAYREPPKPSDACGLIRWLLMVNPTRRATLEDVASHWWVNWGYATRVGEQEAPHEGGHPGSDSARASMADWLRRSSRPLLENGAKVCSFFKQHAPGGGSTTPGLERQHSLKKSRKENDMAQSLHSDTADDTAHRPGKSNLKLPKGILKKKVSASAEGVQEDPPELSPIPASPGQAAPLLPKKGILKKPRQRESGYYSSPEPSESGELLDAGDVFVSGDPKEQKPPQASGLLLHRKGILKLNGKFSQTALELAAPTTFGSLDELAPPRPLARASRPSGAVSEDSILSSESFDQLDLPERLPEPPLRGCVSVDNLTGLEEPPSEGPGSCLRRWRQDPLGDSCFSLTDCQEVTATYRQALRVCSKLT", "UniProt P43403, sequence (whole entry, looked up)": "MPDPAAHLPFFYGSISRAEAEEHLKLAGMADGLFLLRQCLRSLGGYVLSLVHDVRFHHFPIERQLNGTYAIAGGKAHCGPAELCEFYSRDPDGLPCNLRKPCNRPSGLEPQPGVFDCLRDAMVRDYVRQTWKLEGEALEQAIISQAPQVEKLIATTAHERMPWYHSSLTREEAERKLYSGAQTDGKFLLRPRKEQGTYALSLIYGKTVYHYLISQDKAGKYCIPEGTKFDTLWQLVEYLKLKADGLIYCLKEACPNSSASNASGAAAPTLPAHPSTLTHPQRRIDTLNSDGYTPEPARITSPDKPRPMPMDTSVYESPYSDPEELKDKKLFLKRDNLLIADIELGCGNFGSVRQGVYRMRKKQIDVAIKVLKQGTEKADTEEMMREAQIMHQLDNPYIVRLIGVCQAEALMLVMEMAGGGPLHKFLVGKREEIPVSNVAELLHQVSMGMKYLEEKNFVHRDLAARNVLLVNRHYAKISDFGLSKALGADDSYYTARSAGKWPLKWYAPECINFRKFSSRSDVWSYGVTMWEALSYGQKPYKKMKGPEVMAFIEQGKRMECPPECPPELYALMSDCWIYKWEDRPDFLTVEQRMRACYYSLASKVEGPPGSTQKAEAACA", "UniProt P34947, sequence (whole entry, looked up)": "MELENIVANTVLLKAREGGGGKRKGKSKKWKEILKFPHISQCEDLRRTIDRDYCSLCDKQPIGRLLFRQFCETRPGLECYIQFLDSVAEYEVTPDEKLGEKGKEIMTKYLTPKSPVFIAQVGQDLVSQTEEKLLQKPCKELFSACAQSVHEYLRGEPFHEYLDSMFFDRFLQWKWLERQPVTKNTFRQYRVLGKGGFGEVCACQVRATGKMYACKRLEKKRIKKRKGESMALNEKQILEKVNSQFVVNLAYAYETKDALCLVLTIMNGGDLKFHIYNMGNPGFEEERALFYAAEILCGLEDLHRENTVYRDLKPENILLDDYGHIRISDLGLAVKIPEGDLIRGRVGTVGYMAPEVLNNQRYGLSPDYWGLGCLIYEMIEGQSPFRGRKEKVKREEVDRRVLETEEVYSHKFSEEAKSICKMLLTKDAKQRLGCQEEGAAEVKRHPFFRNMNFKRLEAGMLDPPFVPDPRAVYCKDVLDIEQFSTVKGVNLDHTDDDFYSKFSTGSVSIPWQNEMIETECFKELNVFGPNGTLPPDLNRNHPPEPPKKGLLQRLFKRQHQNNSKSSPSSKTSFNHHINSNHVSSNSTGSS"}
{"data": "Sample 1", "Structure (SMILES)": "COc1ccc(S(=O)(=O)N(CCO)c2ccccc2CN(C)CC=Cc2ccc(Cl)cc2)cc1", "read-out": "enzyme activity", "action": "inhibitor", "concentration": "0.5 µM", "reference": "control"}
{"target": "GRK5 (Homo sapiens, UniProt P34947)", "remaining activity": "94.1%"}
{"target": "NTRK3 (Homo sapiens, UniProt Q16288)", "remaining activity": "95.3%"}
{"target": "RET (Homo sapiens, UniProt P07949)", "remaining activity": "103%"}
{"target": "Aurora kinase A (AURKA, Homo sapiens, UniProt O14965)", "remaining activity": "97.5%"}
{"target": "PTK2B (Homo sapiens, UniProt Q14289)", "remaining activity": "106%"}
{"data": "Sample 2", "species": "mouse", "sample": "microsomes or S9", "concentration": "2 µM", "time": "0.5 h"}
{"Structure (SMILES)": "CC1CN(C(=O)c2cnc3n(c2=O)CCS3)C(C)CO1 (centres unmarked)", "remaining compound": "93.9%"}
{"Structure (SMILES)": "O=C(O[C@@H]1Cc2c(O)cc(O)cc2O[C@@H]1c1ccc(O)c(O)c1)c1cc(O)c(O)c(O)c1", "remaining compound": "37%"}
{"Structure (SMILES)": "CCOC(=O)c1c(C)nn(-c2ncnc3c2c(C)c(C)n3CCc2ccccc2)c1N", "remaining compound": "88.6%"}
{"Structure (SMILES)": "O=C1CC2(CCN(C(=O)CSC34CC5CC(CC(C5)C3)C4)CC2)CN1", "remaining compound": "0.48%"}
{"Structure (SMILES)": "O=C(c1ncccn1)N1C2CCC1Cn1c(nnc1-c1ccccc1)C2 (centres unmarked)", "remaining compound": "98.4%"}
{"Structure (SMILES)": "Oc1ccccc1-c1nc(-c2ccccc2O)n(-c2ccc(Br)cc2)n1", "remaining compound": "76.7%"}
{"Structure (SMILES)": "O=S(=O)(NCC(c1ccco1)S(=O)(=O)c1cccs1)c1ccc2c(c1)CCCC2 (centres unmarked)", "remaining compound": "3.29%"}
{"Structure (SMILES)": "CCn1cc(C(=O)NCCNC(=O)c2cn(CC)nc2C)c(C)n1", "remaining compound": "89.2%"}
{"Structure (SMILES)": "COc1ccc(-c2cn3c(C(=O)N4CCN(C/C=C/c5ccccc5)CC4)csc3n2)cc1", "remaining compound": "0.0161%"}
{"data": "Sample 3", "target": "Calcium/calmodulin-dependent protein kinase type II subunit alpha (CAMK2A, Homo sapiens, UniProt Q9UQM7)", "read-out": "enzyme activity", "action": "inhibitor", "concentration": "10 µM", "UniProt Q9UQM7, sequence (whole entry, looked up)": "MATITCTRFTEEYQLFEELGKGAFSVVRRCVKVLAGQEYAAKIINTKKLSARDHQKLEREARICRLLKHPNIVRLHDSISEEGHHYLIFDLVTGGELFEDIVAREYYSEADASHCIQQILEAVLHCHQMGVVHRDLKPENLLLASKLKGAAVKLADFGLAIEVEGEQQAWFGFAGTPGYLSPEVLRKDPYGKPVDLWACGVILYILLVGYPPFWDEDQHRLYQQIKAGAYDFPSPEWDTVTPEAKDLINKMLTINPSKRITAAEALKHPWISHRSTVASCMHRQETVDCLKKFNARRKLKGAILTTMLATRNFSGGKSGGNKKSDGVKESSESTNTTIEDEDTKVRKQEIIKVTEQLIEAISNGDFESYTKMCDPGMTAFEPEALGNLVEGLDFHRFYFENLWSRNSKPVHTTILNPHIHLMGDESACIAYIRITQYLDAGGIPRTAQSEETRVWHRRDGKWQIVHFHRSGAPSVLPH"}
{"Structure (SMILES)": "CC[C@@H](C)[C@H](N)C(=O)O", "inhibition": "-1%"}
{"Structure (SMILES)": "CO[C@H]1O[C@H](COS(=O)(=O)O)[C@@H](O[C@@H]2O[C@@H](C(=O)O)[C@@H](O[C@H]3O[C@H](COS(=O)(=O)O)[C@@H](O[C@@H]4O[C@H](C(=O)O)[C@@H](O[C@H]5O[C@H](COS(=O)(=O)O)[C@@H](O)[C@H](O)[C@H]5NS(=O)(=O)O)[C@H](O)[C@H]4O)[C@H](OS(=O)(=O)O)[C@H]3NS(=O)(=O)O)[C@H](O)[C@H]2OS(=O)(=O)O)[C@H](O)[C@H]1NS(=O)(=O)O", "inhibition": "-3%"}
{"Structure (SMILES)": "O=C(/C=C/c1cccc(S(=O)(=O)Nc2ccccc2)c1)NO", "inhibition": "-8%"}
{"Structure (SMILES)": "NC[C@H]1CC[C@H](C(=O)O)CC1", "inhibition": "-6%"}
{"data": "Sample 4", "SMILES": "Cn1nc(C(=O)NCc2ccc(C(=O)O)cc2)cc1-c1ccc2[nH]ccc2c1", "technique": "competition with immobilised ligand", "concentration": "0.1 µM"}
{"target": "Tyrosine-protein kinase ABL1, non-phosphorylated (ABL1, Homo sapiens, UniProt P00519, F317I)", "assay": "binding", "remaining binding": "68%"}
{"target": "NLK (Homo sapiens, UniProt Q9UBE8)", "assay": "cell-free assay", "remaining binding": "100%"}
{"target": "TGFBR2 (Homo sapiens, UniProt P37173)", "assay": "cell-free assay", "remaining binding": "100%"}
{"target": "SRPK2 (Homo sapiens, UniProt P78362)", "assay": "cell-free assay", "remaining binding": "85%"}
{"target": "ALK (Homo sapiens, UniProt Q9UM73)", "assay": "cell-free assay", "remaining binding": "80%"}
{"target": "DAPK3 (Homo sapiens, UniProt O43293)", "assay": "cell-free assay", "remaining binding": "86%"}
{"target": "DYRK2 (Homo sapiens, UniProt Q92630)", "assay": "cell-free assay", "remaining binding": "100%"}
{"target": "PIP4K2B (Homo sapiens, UniProt P78356)", "assay": "cell-free assay", "remaining binding": "93%"}
{"target": "PIP5K1C (Homo sapiens, UniProt O60331)", "assay": "cell-free assay", "remaining binding": "91%"}
{"target": "HIPK1 (Homo sapiens, UniProt Q86Z02)", "assay": "cell-free assay", "remaining binding": "85%"}
{"target": "NUAK2 (Homo sapiens, UniProt Q9H093)", "assay": "cell-free assay", "remaining binding": "87%"}
{"target": "TIE1 (Homo sapiens, UniProt P35590)", "assay": "cell-free assay", "remaining binding": "93%"}
{"target": "ZAP70 (Homo sapiens, UniProt P43403)", "assay": "cell-free assay", "remaining binding": "82%"}
{"target": "TNNI3K (Homo sapiens, UniProt Q59H18)", "assay": "cell-free assay", "remaining binding": "100%"}
